Experimental data gathered from unrelated publications.
Values joined by “and” are separate records of one study, mostly repeats; a detail may differ. Numbers after ± are the reported error.

COc1ccc(CNc2ccc3c(c2)S(=O)(=O)C=C3)cc1 — mean platelet volume (male C57BL/6 mice, blood; intraperitoneal, 20 mg/kg, day 8, group average): 5.4 fL
CC(C)C[C@H](NC(=O)CNC(=O)[C@H](CCC(N)=O)NC(=O)[C@H](CC(C)C)NC(=O)[C@H](CC(C)C)NC(=O)[C@H](CCCNC(=N)N)NC(=O)[C@H](CCC(N)=O)NC(=O)[C@H](CC(C)C)NC(=O)[C@H](CCCNC(=N)N)NC(=O)[C@H](C)NC(=O)CNC(=O)[C@H](CCC(=O)O)NC(=O)[C@H](CCCNC(=N)N)NC(=O)[C@H](CC(C)C)NC(=O)[C@H](CCCNC(=N)N)NC(=O)[C@H](CO)NC(=O)[C@H](CC(C)C)NC(=O)[C@H](CCC(=O)O)NC(=O)[C@H](CO)NC(=O)[C@@H](NC(=O)[C@H](Cc1ccccc1)NC(=O)[C@@H](NC(=O)CNC(=O)[C@H](CC(=O)O)NC(=O)C(C)(C)NC(=O)[C@@H](N)Cc1c[nH]cn1)[C@@H](C)O)[C@@H](C)O)C(=O)N[C@@H](CC(C)C)C(=O)N[C@@H](CCC(N)=O)C(=O)NCC(=O)N[C@@H](CC(C)C)C(=O)N[C@H](C(=O)NCC(=O)N[C@@H](CCCCNC(=O)COCCOCCNC(=O)COCCOCCNC(=O)CC[C@H](NC(=O)CCCCCCCCCCCCCCCCC(=O)O)C(=O)O)C(N)=O)C(C)C — plasma concentration (male C57BL/6J mice, diet-induced obese, plasma; subcutaneous, 300 nmol/kg, 2 h post-dose, day 1): 893 nM
N=C(N)NCCC[C@@H](NC(=O)[C@H](N)Cc1c[nH]c2ccccc12)C(=O)N[C@H](CCCCN)C(=O)N[C@H](Cc1c[nH]c2ccccc12)C(=O)N[C@H](CCCNC(=N)N)C(=O)N[C@H](CCCCN)C(=O)N[C@H](Cc1c[nH]c2ccccc12)C(=O)N[C@H](CCCNC(=N)N)C(=O)N[C@H](CCCCN)C(=O)N[C@H](Cc1c[nH]c2ccccc12)C(=O)N[C@H](CCCNC(=N)N)C(=O)N[C@H](CCCCN)C(N)=O — NGAL level (mouse, urine; 20 mg/kg): 32.4 ng/mL
CSCC[C@H](N)C(=O)N[C@@H](C)C(=O)N[C@@H](Cc1c[nH]c2ccccc12)C(=O)N[C@@H](Cc1c[nH]cn1)C(=O)N[C@@H](CC(=O)O)C(=O)N[C@@H](CC(=O)O)C(=O)N[C@@H](CCC(=O)O)C(=O)N[C@@H](CCC(=O)O)C(=O)N[C@@H](Cc1ccccc1)C(=O)N[C@@H](C)C(=O)N[C@@H](CCCNC(=N)N)C(=O)N[C@@H](CCCNC(=N)N)C(=O)N[C@@H](CCCNC(=N)N)C(=O)N[C@@H](CCCNC(=N)N)C(=O)NCCCCCC(=O)NCCCCC(NC(=O)CCCCCNC(=O)[C@H](CCCNC(=N)N)NC(=O)[C@H](CCCNC(=N)N)NC(=O)[C@H](CCCNC(=N)N)NC(=O)[C@H](CCCNC(=N)N)NC(=O)[C@H](C)NC(=O)[C@H](Cc1ccccc1)NC(=O)[C@H](CCC(=O)O)NC(=O)[C@H](CCC(=O)O)NC(=O)[C@H](CC(=O)O)NC(=O)[C@H](CC(=O)O)NC(=O)[C@H](Cc1c[nH]cn1)NC(=O)[C@H](Cc1c[nH]c2ccccc12)NC(=O)[C@H](C)NC(=O)[C@@H](N)CCSC)C(=O)NCCCCC(NC(=O)C(CCCCNC(=O)CCCCCNC(=O)[C@H](CCCNC(=N)N)NC(=O)[C@H](CCCNC(=N)N)NC(=O)[C@H](CCCNC(=N)N)NC(=O)[C@H](CCCNC(=N)N)NC(=O)[C@H](C)NC(=O)[C@H](Cc1ccccc1)NC(=O)[C@H](CCC(=O)O)NC(=O)[C@H](CCC(=O)O)NC(=O)[C@H](CC(=O)O)NC(=O)[C@H](CC(=O)O)NC(=O)[C@H](Cc1c[nH]cn1)NC(=O)[C@H](Cc1c[nH]c2ccccc12)NC(=O)[C@H](C)NC(=O)[C@@H](N)CCSC)NC(=O)CCCCCNC(=O)[C@H](CCCNC(=N)N)NC(=O)[C@H](CCCNC(=N)N)NC(=O)[C@H](CCCNC(=N)N)NC(=O)[C@H](CCCNC(=N)N)NC(=O)[C@H](C)NC(=O)[C@H](Cc1ccccc1)NC(=O)[C@H](CCC(=O)O)NC(=O)[C@H](CCC(=O)O)NC(=O)[C@H](CC(=O)O)NC(=O)[C@H](CC(=O)O)NC(=O)[C@H](Cc1c[nH]cn1)NC(=O)[C@H](Cc1c[nH]c2ccccc12)NC(=O)[C@H](C)NC(=O)[C@@H](N)CCSC)C(N)=O (some centres unmarked) — mean tissue distribution (C57BL/6 mouse female, skull; dose not given, 3 h; reference: total): 17%
O=C1NC2(CC2)COc2ncc(F)cc2[C@H]2COCCN2c2ccn3ncc1c3n2 — haemoglobin (Sprague-Dawley rat, female, blood; oral, 2.5 mg/kg/day, 4 weeks, end of treatment, subacute toxicity): 132 ± 13 g/L
C[C@H](O)[C@@H](NC(=O)[C@H]1CCCN1C(=O)[C@@H](CCCCN)NC(=O)[C@@H](CO)NC(=O)[C@@H](Cc1ccc(O)cc1)NC(=O)[C@@H](CC(N)=O)NC(=O)CCOCCOCCOCCNC(=O)CN1CCN(CC(=O)O)CCN(CC(=O)O)CCN(CC(=O)O)CC1)C(=O)N[C@H](CC(=O)O)C(=O)N[C@H](CCCNC(=N)N)C(=O)N[C@H](CCC(N)=O)C(=O)N[C@H](Cc1ccc(O)cc1)C(=O)N[C@H](Cc1c[nH]cn1)C(=O)N[C@H](Cc1ccccc1)C(N)=O [gallium-68 labelled] — tissue uptake (BALB/c nude mice U-87 MG tumour, fat; intravenous, 1.85 MBq, 0.5 h, radiolabelled): 0.81 ± 0.12 %ID/g
CC[C@H](C)[C@H](NC(=O)[C@H](CCCCN)NC(=O)CNC(=O)[C@H](CC(C)C)NC(=O)[C@H](Cc1ccccc1)NC(=O)[C@H](CCCCN)NC(=O)[C@H](CO)NC(=O)[C@H](Cc1ccccc1)NC(=O)[C@H](Cc1c[nH]c2ccccc12)NC(=O)[C@H](CCC(N)=O)NC(=O)[C@@H](NC(=O)[C@H](Cc1ccccc1)NC(=O)CCCCCNC(=O)CN1CCN(CC(=O)O)CCN(CC(=O)O)CCN(CC(=O)O)CC1)C(C)C)C(=O)N[C@@H](CCC(=O)O)C(=O)N1CCC[C@H]1C(=O)N[C@@H](CC(=O)O)C(=O)N[C@H](C(=O)N[C@@H](CO)C(=O)N[C@@H](CCC(N)=O)C(=O)N[C@H](C(=O)N[C@@H](CCC(N)=O)C(=O)N[C@@H](CC(=O)O)C(=O)N1CCC[C@H]1C(=O)N[C@@H](CC(N)=O)C(=O)N[C@@H](CC(=O)O)C(=O)N[C@@H](CCC(N)=O)C(=O)N[C@@H](Cc1ccc(O)cc1)C(=O)N[C@@H](CCC(=O)O)C(=O)N1CCC[C@H]1C(=O)N[C@@H](Cc1ccccc1)C(=O)O)C(C)C)C(C)C [copper-64 labelled] — tissue uptake (C57BL/6 mice, male, tumour-free, blood; 4 h): 1.61 ± 0.2 %ID/g
Cc1ccc(OC[C@H]2CCCN2C)cc1C(=O)N[C@H](C)c1cc(-c2cnn(C)c2)nc2ccccc12 — viability (African green monkey cells; 31.25 µM): 37.9%
CSCC[C@H](NC(=O)[C@@H](NC(=O)[C@H](CC(C)C)NC(=O)[C@@H](NC(=O)[C@H](Cc1c[nH]cn1)NC(=O)CCCCCNC(=O)[C@H](CCCNC(=N)N)NC(=O)[C@H](CCCNC(=N)N)NC(=O)[C@H](CCCNC(=N)N)NC(=O)[C@H](CCC(N)=O)NC(=O)[C@H](CCCNC(=N)N)NC(=O)[C@H](CCCNC(=N)N)NC(=O)[C@H](CCCCN)NC(=O)[C@H](CCCCN)NC(=O)[C@H](CCCNC(=N)N)NC(=O)CNC(=O)[C@@H](N)Cc1ccc(O)cc1)C(C)C)C(C)C)C(=O)N[C@@H](CS)C(=O)N[C@@H](C)C(=O)N[C@H](C(N)=O)[C@@H](C)O — serum Creatinine (C57BL/6J mice; Alzet osmotic pump, 3 mg/kg, 8 weeks): 0.2 mg/dL
CC[C@H](C)[C@H](NC(=O)[C@H](CCCNC(=N)N)NC(=O)[C@H](CCCCN)NC(=O)[C@H](Cc1ccc(O)cc1)NC(=O)[C@H](CC(=O)O)NC(=O)[C@H](C)NC(=O)CNC(=O)CCOCCOCCOCCNC(=O)CN1CCN(CC(=O)O)CCN(CC(=O)O)CCN(CC(=O)O)CC1)C(=O)N[C@H](C(=O)N[C@H](C(=O)N[C@@H](CCCCN)C(=O)N[C@H](C(=O)N[C@@H](CC(N)=O)C(N)=O)C(C)C)C(C)C)[C@@H](C)O [copper-64 labelled] — tissue uptake (C57BL/6J mouse male, B16-F10 tumour, small intestine; intravenous, 1.85 MBq, 5 min, 67Ga complex): 2.1 ± 0.103 %ID/g
CCCC[C@@H]1NC(=O)[C@H](Cc2ccc(O)cc2)NC(=O)[C@@H]2CCCN2C(=O)[C@H](CC(=O)O)NC(=O)[C@H](C)NC(=O)[C@H](Cc2ccccc2)NC(=O)[C@@H]2CSCCC(=O)N3CN(CN(C3)C(=O)CCSC[C@@H](C(=O)N[C@@H](C)C(N)=O)NC1=O)C(=O)CCSC[C@H](NC(C)=O)C(=O)N[C@@H](CC(C)(C)C)C(=O)N1CCC[C@H]1C(=O)N[C@@H](CCC(=O)O)C(=O)N[C@H](CCCCNC(=O)CCc1cn(CCOCCOCCOCCN(CCOCCOCCOCCC(=O)N[C@H]3CSCCC(=O)N4CN5CN(C4)C(=O)CCSC[C@H](NC(=O)[C@@H](CC(=O)O)NC(=O)[C@H](Cc4cccc6ccccc46)NC(=O)[C@@H]4CCCN4C3=O)C(=O)N[C@@H](CCSC)C(=O)N[C@@H](CCCCNC(=N)N)C(=O)N[C@@H](CC(=O)O)C(=O)N[C@@H](Cc3c[nH]c4ccccc34)C(=O)N[C@@H](CO)C(=O)N[C@@H]([C@@H](C)O)C(=O)N3CCC[C@H]3C(=O)N3C[C@H](O)C[C@H]3C(=O)N[C@@H](Cc3c[nH]c4ccccc34)C(=O)N[C@H](C(N)=O)CSCCC5=O)CCOCCOCCOCCn3cc(CCC(=O)NCCCC[C@H]4NC(=O)[C@H](CCC(=O)O)NC(=O)[C@@H]5CCCN5C(=O)[C@H](CC(C)(C)C)NC(=O)[C@@H](NC(C)=O)CSCCC(=O)N5CN6CN(C5)C(=O)CCSC[C@H](NC(=O)[C@H](Cc5ccc(O)cc5)NC(=O)[C@@H]5CCCN5C4=O)C(=O)N[C@@H](Cc4ccccc4)C(=O)N[C@@H](C)C(=O)N[C@@H](CC(=O)O)C(=O)N4CCC[C@H]4C(=O)N[C@@H](Cc4ccc(O)cc4)C(=O)N[C@@H](CCCC)C(=O)N[C@H](C(=O)N[C@@H](C)C(N)=O)CSCCC6=O)nn3)nn1)C(=O)N1CCC[C@H]1C(=O)N[C@@H](Cc1ccc(O)cc1)C(=O)N2 — Vdss (CD-1 mouse): 2.3 ± 0.6 L/kg
Cc1ccc(OCCN(C)C)cc1C(=O)N[C@H](C)c1cc(-c2cnn(CC(C)(C)O)c2)nc2ccccc12 — viability (Vero E6; 31.25 µM): 111% and 109%
C=CC(=O)Nc1cccc(Cn2ncc3cnc(Nc4cnn(CCOC)c4)nc32)c1 — serum AST (Sprague-Dawley rat female, serum; oral, 180 mg/kg, day 28, 28-day subacute toxicity): 75.8 ± 42 U/L
N#[11C]c1ccc(-c2csc(NN=C3CCCC3)n2)cc1 — uptake in blood (C57BL/6 mouse, male; intravenous, 3 MBq, 5 min): 6.41 ± 0.33 %ID/g

Some of these lines once more:
CC(C)C[C@H](NC(=O)CNC(=O)[C@H](CCC(N)=O)NC(=O)[C@H](CC(C)C)NC(=O)[C@H](CC(C)C)NC(=O)[C@H](CCCNC(=N)N)NC(=O)[C@H](CCC(N)=O)NC(=O)[C@H](CC(C)C)NC(=O)[C@H](CCCNC(=N)N)NC(=O)[C@H](C)NC(=O)CNC(=O)[C@H](CCC(=O)O)NC(=O)[C@H](CCCNC(=N)N)NC(=O)[C@H](CC(C)C)NC(=O)[C@H](CCCNC(=N)N)NC(=O)[C@H](CO)NC(=O)[C@H](CC(C)C)NC(=O)[C@H](CCC(=O)O)NC(=O)[C@H](CO)NC(=O)[C@@H](NC(=O)[C@H](Cc1ccccc1)NC(=O)[C@@H](NC(=O)CNC(=O)[C@H](CC(=O)O)NC(=O)C(C)(C)NC(=O)[C@@H](N)Cc1c[nH]cn1)[C@@H](C)O)[C@@H](C)O)C(=O)N[C@@H](CC(C)C)C(=O)N[C@@H](CCC(N)=O)C(=O)NCC(=O)N[C@@H](CC(C)C)C(=O)N[C@H](C(=O)NCC(=O)N[C@@H](CCCCNC(=O)COCCOCCNC(=O)COCCOCCNC(=O)CC[C@H](NC(=O)CCCCCCCCCCCCCCCCC(=O)O)C(=O)O)C(N)=O)C(C)C — plasma concentration (male C57BL/6J mice, diet-induced obese, plasma; subcutaneous, 300 nmol/kg, 2 h post-dose, day 1): 893 nM
N=C(N)NCCC[C@@H](NC(=O)[C@H](N)Cc1c[nH]c2ccccc12)C(=O)N[C@H](CCCCN)C(=O)N[C@H](Cc1c[nH]c2ccccc12)C(=O)N[C@H](CCCNC(=N)N)C(=O)N[C@H](CCCCN)C(=O)N[C@H](Cc1c[nH]c2ccccc12)C(=O)N[C@H](CCCNC(=N)N)C(=O)N[C@H](CCCCN)C(=O)N[C@H](Cc1c[nH]c2ccccc12)C(=O)N[C@H](CCCNC(=N)N)C(=O)N[C@H](CCCCN)C(N)=O — NGAL level (mouse, urine; 20 mg/kg): 32.4 ng/mL
